# Measurements gathered from unrelated publications.
# ± marks the error that the study gave.
# ABCB1: ATP-dependent translocase ABCB1 (ABCB1, Homo sapiens, UniProt P08183)
# Sequence of UniProt P08183 (whole entry, looked up): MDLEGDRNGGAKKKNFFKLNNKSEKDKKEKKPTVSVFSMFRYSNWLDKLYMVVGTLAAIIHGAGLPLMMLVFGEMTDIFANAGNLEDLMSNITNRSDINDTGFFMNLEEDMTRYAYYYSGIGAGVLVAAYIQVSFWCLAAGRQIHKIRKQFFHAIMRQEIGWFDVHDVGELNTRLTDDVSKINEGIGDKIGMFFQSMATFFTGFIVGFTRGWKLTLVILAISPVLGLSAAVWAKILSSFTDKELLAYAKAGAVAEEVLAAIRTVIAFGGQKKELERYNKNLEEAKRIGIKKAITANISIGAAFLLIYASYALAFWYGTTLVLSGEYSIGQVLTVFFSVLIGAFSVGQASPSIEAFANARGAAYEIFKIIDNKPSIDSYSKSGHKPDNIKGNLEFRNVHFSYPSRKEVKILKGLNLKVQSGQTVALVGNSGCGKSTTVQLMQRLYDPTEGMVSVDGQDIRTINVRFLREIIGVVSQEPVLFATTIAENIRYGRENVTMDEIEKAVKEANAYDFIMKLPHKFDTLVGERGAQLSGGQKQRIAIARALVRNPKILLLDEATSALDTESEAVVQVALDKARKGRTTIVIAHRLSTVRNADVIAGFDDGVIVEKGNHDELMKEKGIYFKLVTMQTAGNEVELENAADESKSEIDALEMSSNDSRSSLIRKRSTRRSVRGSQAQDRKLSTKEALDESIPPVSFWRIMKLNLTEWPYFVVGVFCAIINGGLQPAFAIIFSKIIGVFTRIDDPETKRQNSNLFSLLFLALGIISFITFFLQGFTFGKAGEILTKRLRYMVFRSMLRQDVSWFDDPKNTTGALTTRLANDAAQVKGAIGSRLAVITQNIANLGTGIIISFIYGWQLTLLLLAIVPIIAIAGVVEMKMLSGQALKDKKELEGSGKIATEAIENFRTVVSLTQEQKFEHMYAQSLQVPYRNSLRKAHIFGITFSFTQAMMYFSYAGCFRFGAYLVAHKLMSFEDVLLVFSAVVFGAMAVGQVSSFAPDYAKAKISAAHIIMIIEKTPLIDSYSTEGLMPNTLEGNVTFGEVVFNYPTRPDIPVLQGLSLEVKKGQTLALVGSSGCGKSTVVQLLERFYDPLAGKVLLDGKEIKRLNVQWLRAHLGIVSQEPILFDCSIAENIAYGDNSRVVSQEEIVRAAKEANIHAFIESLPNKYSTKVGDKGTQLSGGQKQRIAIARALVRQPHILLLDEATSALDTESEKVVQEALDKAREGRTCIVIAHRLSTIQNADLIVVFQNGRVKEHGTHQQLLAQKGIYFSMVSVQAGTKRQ
# Cytochrome P450 2A13: Cytochrome P450 2A13 (Homo sapiens, UniProt Q16696)
# Sequence of UniProt Q16696 (whole entry, looked up): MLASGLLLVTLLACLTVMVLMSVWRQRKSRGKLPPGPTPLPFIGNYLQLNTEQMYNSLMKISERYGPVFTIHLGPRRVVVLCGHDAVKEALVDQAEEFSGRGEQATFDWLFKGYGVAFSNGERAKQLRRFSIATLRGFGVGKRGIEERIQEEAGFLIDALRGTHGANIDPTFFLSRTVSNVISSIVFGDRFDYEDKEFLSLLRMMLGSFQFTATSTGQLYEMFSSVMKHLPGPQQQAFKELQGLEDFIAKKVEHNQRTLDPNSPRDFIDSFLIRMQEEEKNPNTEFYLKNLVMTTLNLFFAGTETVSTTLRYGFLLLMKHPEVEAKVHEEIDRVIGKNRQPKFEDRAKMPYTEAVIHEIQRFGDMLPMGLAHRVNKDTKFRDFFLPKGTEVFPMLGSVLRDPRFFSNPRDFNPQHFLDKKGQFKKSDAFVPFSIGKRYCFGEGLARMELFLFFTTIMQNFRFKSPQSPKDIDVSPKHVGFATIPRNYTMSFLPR
# Nuclear receptor subfamily 1 group I member 3: Nuclear receptor subfamily 1 group I member 3 (Homo sapiens, UniProt Q14994)
# Sequence of UniProt Q14994 (whole entry, looked up): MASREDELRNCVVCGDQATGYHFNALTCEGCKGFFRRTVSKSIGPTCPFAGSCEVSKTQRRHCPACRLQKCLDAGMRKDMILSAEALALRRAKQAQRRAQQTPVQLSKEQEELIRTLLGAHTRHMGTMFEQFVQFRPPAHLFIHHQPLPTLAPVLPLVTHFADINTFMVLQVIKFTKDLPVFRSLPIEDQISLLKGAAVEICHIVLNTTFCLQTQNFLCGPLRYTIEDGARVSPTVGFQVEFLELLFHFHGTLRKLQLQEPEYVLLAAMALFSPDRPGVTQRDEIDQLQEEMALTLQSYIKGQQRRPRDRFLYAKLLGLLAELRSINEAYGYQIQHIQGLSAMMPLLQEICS
# Sequence of UniProt O89049 (whole entry, looked up): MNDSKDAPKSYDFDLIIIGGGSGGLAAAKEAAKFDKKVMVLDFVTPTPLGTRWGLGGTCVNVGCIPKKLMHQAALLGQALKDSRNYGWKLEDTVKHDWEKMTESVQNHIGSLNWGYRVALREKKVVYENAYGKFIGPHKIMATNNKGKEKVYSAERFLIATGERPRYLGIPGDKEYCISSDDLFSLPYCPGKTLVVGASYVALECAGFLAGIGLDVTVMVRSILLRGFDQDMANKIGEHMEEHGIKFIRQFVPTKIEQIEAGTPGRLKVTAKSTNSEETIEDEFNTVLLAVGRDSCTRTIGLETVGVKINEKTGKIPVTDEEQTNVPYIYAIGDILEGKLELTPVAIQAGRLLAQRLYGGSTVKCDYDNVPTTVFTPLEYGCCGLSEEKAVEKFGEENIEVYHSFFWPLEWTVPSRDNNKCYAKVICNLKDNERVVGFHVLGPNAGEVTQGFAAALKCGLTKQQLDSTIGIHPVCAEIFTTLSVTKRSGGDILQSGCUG
# Sequence of UniProt P41738 (whole entry, looked up): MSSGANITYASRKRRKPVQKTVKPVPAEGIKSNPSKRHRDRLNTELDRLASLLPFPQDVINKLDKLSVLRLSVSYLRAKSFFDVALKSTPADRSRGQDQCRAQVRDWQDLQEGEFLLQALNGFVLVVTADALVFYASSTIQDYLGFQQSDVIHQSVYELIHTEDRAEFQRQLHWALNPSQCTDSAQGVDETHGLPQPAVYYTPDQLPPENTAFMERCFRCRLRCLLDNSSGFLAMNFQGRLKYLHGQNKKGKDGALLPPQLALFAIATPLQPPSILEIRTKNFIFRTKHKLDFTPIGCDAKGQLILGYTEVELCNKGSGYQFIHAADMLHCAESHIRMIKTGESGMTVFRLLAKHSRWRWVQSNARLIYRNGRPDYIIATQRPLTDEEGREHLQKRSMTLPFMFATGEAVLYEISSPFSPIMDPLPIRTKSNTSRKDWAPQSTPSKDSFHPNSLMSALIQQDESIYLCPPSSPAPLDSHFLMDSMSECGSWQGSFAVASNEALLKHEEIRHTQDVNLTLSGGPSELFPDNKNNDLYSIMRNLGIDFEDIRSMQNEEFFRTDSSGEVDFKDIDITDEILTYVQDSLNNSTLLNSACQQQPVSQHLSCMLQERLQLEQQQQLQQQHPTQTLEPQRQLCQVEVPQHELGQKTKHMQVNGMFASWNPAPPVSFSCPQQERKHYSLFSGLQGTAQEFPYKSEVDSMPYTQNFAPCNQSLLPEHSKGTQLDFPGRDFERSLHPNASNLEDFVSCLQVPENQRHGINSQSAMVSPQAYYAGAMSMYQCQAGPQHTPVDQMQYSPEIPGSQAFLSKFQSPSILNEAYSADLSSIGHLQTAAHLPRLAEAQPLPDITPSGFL
# Sequence of UniProt P10619 (whole entry, looked up): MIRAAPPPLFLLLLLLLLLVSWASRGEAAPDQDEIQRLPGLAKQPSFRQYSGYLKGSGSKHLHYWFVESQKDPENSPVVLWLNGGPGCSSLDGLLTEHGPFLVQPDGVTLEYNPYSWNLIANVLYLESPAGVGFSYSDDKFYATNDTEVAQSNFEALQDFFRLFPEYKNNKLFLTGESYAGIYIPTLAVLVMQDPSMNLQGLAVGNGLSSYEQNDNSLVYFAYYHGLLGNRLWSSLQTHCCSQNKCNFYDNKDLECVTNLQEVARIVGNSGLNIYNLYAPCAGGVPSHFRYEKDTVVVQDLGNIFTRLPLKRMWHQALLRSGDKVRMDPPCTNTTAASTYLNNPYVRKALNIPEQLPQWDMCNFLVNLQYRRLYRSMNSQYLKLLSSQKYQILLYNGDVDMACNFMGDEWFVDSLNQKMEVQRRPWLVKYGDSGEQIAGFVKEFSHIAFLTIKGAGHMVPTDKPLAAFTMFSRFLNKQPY
# Sequence of UniProt P16662 (whole entry, looked up): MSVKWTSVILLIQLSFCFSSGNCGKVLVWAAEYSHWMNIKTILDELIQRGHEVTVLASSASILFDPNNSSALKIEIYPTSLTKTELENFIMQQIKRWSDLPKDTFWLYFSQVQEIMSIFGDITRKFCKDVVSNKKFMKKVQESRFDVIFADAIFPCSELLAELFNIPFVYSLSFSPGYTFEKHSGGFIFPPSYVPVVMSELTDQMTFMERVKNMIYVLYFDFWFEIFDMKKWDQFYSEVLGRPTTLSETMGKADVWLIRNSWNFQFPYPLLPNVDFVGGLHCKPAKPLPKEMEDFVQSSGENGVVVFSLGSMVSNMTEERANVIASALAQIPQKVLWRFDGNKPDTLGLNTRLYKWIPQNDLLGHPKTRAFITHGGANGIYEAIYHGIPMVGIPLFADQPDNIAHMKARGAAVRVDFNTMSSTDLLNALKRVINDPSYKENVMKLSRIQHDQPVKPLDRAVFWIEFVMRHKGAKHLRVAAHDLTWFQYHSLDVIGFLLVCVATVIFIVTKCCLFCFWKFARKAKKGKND
# Sequence of UniProt P20815 (whole entry, looked up): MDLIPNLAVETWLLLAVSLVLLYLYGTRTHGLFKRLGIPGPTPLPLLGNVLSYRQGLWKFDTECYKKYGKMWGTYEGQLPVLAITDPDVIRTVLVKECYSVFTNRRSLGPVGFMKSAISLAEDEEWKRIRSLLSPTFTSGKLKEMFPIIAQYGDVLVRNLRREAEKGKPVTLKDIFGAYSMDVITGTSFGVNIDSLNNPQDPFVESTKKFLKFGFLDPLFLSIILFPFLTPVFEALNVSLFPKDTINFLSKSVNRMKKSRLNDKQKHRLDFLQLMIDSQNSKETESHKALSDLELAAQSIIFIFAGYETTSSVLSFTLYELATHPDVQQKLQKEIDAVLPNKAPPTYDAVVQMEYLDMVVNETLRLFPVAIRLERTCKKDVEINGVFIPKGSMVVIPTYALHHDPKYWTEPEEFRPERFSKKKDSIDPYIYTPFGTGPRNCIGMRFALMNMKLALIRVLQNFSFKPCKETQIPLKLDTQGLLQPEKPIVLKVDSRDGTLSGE
SMILES,target,test,system,setting,how to read,quantity,result
O=c1ccc2ncc(=O)n3c2n1C[C@H]3CN1CCC(NCc2cc3c(cn2)OCCC3)CC1,ABCB1,substrate,transporter-overexpressing cell monolayers,,,efflux ratio,11 to 15
C#CCOCc1cccc2ccccc12,Cytochrome P450 2A13,"enzyme activity, inhibitor",,added: 10 µM coumarin,,IC50,< 20 µM
Cc1cc2nc3c(=O)[nH]c(=O)nc-3n(C[C@H](O)[C@H](O)[C@H](O)COP(=O)(O)O)c2cc1C,"Iodotyrosine deiodinase (Haliscomenobacter hydrossis, UniProt F4KU78, R38K)","bound cofactor redox, redox titration",,"pH 7.4, 25 °C, anaerobic, no substrate",,midpoint potential,-208 ± 13 mV
CC[C@H](C)[C@H](NC(=O)[C@H](Cc1ccccc1)NC(=O)[C@H](CCC(=O)O)NC(=O)[C@H](CCCCN)NC(=O)[C@H](C)NC(=O)[C@H](C)NC(=O)[C@H](CCC(N)=O)NC(=O)CNC(=O)[C@H](CCC(=O)O)NC(=O)[C@H](CC(C)C)NC(=O)[C@H](Cc1ccc(O)cc1)NC(=O)[C@H](CO)NC(=O)[C@H](CO)NC(=O)[C@@H](NC(=O)[C@H](CC(=O)O)NC(=O)[C@H](CO)NC(=O)[C@@H](NC(=O)[C@H](Cc1ccccc1)NC(=O)[C@@H](NC(=O)CNC(=O)[C@H](CCC(=O)O)NC(=O)[C@H](C)NC(=O)N(N)Cc1c[nH]cn1)[C@@H](C)O)[C@@H](C)O)C(C)C)C(=O)N[C@@H](C)C(=O)N[C@@H](Cc1c[nH]c2ccccc12)C(=O)N[C@@H](CC(C)C)C(=O)N[C@H](C(=O)N[C@@H](CCCNC(=N)N)C(=O)NCC(=O)N[C@@H](CCCNC(=N)N)C(=O)NCC(=O)O)C(C)C,"DPP4 (Homo sapiens, UniProt P27487)",HPLC-UV,Tris-HCl,"0.1 mM, 8 h, pH 7.4, 37 °C, added: DPP4 16 nM",,remaining peptide,100%
CN(C)C(=O)COC(=O)Cc1ccc(OC(=O)c2ccc(NC(=N)N)cc2)cc1,ABCB1,"transport, inhibitor",,"100 µM, 5 (unit not given), pH 7, added: NMN",,inhibition,73.9%
c1nc[nH]n1,"Cytochrome P450 2A6 (CYP2A6, Homo sapiens, UniProt P11509)",binding,,,,Kd,283 µM
Cc1oncc1C(=O)Nc1ccc(C(F)(F)F)cc1,ABCB1,"transport, inhibitor",,"100 µM, 5 (unit not given), pH 7, added: NMN",,inhibition,13.7%
O=C1CC(c2ccccc2)Oc2ccccc21 (stereo not drawn),Cytochrome P450 2A13,"coumarin 7-hydroxylation, inhibitor",,"20 min, 37 °C, added: 10 µM coumarin",,IC50,4.3 µM
O=C1CCC(N2C(=O)c3ccccc3C2=O)C(=O)N1 (stereo not drawn),ABCB1,"transport, inhibitor",,"100 µM, 5 (unit not given), pH 7, added: NMN",,inhibition,60.5%
CC(C)OC(=O)[C@H](C)NP(=S)(Oc1ccc(CCN2CCOCC2)cc1)c1ccccc1 (stereo partly drawn),"CTSA (Homo sapiens, UniProt P10619)","substrate, LC-MS/MS",,"5 µM, pH 7.4, 37 °C",,half-life,45 min
C[C@@H]1CC[C@]2(C(=O)O)CC[C@]3(C)C(=CC[C@@H]4[C@@]5(C)CC[C@H](O)[C@@](C)(CO)[C@@H]5CC[C@]43C)[C@@H]2[C@]1(C)O,CYP3A4/5,"midazolam 1'-hydroxylation, mechanism-based inhibitor, probe cocktail incubation",pooled human liver microsomes,"50 µM, 20 min, 30 min pre-incubation, added: midazolam 1.535 µM",,remaining activity,74.8%
Clc1ccc(Cl)c(-c2ccccc2Cl)c1,Nuclear receptor subfamily 1 group I member 3,"CYP2B6 mRNA induction, activator, qRT-PCR",differentiated HepaRG,24 h,reference: phenobarbital,EC25,2 µM
Oc1cc(Cl)c(-c2ccc(Cl)cc2Cl)c(Cl)c1O,cytochrome P450,GC-MS,"rat, Sprague-Dawley, male, corn oil-pretreated, liver microsomes","50 µM, 2 h, 37 °C",,metabolite formation,not detected
CCN(CCO)CCCC(C)Nc1ccnc2cc(Cl)ccc12 (stereo not drawn),ABCB1,"transport, inhibitor",,"100 µM, 5 (unit not given), pH 7, added: NMN",,inhibition,81.6%
C#CCOCc1ccccc1-c1ccccc1,Cytochrome P450 2A13,"enzyme activity, inhibitor",,added: 10 µM coumarin,,IC50,15 to 80 µM
Clc1cc2c(cc1Cl)Oc1cc(Cl)c(Cl)cc1O2,"Ahr (Rattus norvegicus, UniProt P41738)","reporter gene, agonist, DR-Luc",,,,EC50,2.7 ± 0.3 pM
COc1cc2nc(N3CCN(C(=O)c4ccco4)CC3)nc(N)c2cc1OC,ABCB1,"transport, inhibitor",,"100 µM, 5 (unit not given), pH 7, added: NMN",,inhibition,79.1%
CC(=O)c1c(O)c(C)c(O)c(Cc2c(O)c3c(c(C(=O)/C=C/c4ccccc4)c2O)OC(C)(C)C=C3)c1O,"Txnrd1 (Rattus norvegicus, UniProt O89049)",inhibitor,,,,kinact/KI,0.0003 ± 4e-05 µM⁻¹ min⁻¹
Cn1nccc1[C@]1(CNC(=O)c2ccc(F)c(F)c2-c2ccc(C(F)(F)F)cc2)NC(=O)NC1=O,"Cytochrome P450 2C8 (CYP2C8, Homo sapiens, UniProt P10632)",,human liver microsomes,added: amodiaquine,no inhibition up to value,IC50,> 20 µM
C#CCOCc1ccc(-c2ccccc2)cc1,Cytochrome P450 2A13,"enzyme activity, inhibitor",,added: 10 µM coumarin,,IC50,> 80 µM
CC(C)CC(=O)OC[C@H]1O[C@@](C#N)(c2ccc3c(N)ncnn23)[C@H](O)[C@@H]1O,"Cytochrome P450 3A5 (CYP3A5, Homo sapiens, UniProt P20815)",metabolic stability,recombinant enzyme,1 µM,,half-life,20 ± 0.784 min
Nc1nc2c(ncn2[C@@H]2O[C@@H]3COP(O)(=S)O[C@H]4[C@@H](O)[C@H](n5cnc6c(N)ncnc65)O[C@@H]4COP(=O)(S)O[C@@H]2[C@@H]3O)c(=O)[nH]1 (stereo partly drawn),"ENPP1 (Homo sapiens, UniProt P22413)",substrate,,8 h,,degradation,~20%
C#CCOCCc1cccc2ccccc12,Cytochrome P450 2A13,"enzyme activity, inhibitor",,added: 10 µM coumarin,,IC50,15 to 80 µM
N#CC[C@H](C1CCCC1)n1cc(-c2ncnc3[nH]ccc23)cn1,ABCB1,"transport, inhibitor",,"100 µM, 5 (unit not given), pH 7, added: NMN",,inhibition,-7.8%
Clc1ccc(-c2cc(Cl)ccc2Cl)cc1,Nuclear receptor subfamily 1 group I member 3,"CYP2B6 mRNA induction, activator, qRT-PCR",differentiated HepaRG,24 h,reference: phenobarbital,EC25,5 µM
NC(=O)c1ncn([C@@H]2O[C@H](CO)[C@@H](O)[C@H]2O)n1,ABCB1,"transport, inhibitor",,"100 µM, 5 (unit not given), pH 7, added: NMN",,inhibition,67.9%
C#CCOc1ccc2ccccc2c1,Cytochrome P450 2A13,"enzyme activity, inhibitor",,added: 10 µM coumarin,,IC50,0.4 to 10 µM
C=C1CC[C@@H]2[C@](C)(CO)[C@H](O)CC[C@@]2(C)[C@@H]1/C=C/C1=CCOC1=O,"UGT2B7 (Homo sapiens, UniProt P16662)","AZT glucuronidation, inhibitor",human liver microsomes,added: zidovudine substrate,,Ki,90.4 µM
C#CCOc1ccccc1-c1ccccc1OCC#C,Cytochrome P450 2A13,"enzyme activity, inhibitor",,added: 10 µM coumarin,,IC50,> 80 µM
CCOC(=O)C1=C[C@@H](OC(CC)CC)[C@H](NC(C)=O)[C@@H](N)C1,ABCB1,"transport, inhibitor",,"100 µM, 5 (unit not given), pH 7, added: NMN",,inhibition,69.5%

# A few entries again:
SMILES,target,test,system,setting,how to read,quantity,result
COc1cc2nc(N3CCN(C(=O)c4ccco4)CC3)nc(N)c2cc1OC,ABCB1,"transport, inhibitor",,"100 µM, 5 (unit not given), pH 7, added: NMN",,inhibition,79.1%
CC(=O)c1c(O)c(C)c(O)c(Cc2c(O)c3c(c(C(=O)/C=C/c4ccccc4)c2O)OC(C)(C)C=C3)c1O,"Txnrd1 (Rattus norvegicus, UniProt O89049)",inhibitor,,,,kinact/KI,0.0003 ± 4e-05 µM⁻¹ min⁻¹
Cn1nccc1[C@]1(CNC(=O)c2ccc(F)c(F)c2-c2ccc(C(F)(F)F)cc2)NC(=O)NC1=O,"Cytochrome P450 2C8 (CYP2C8, Homo sapiens, UniProt P10632)",,human liver microsomes,added: amodiaquine,no inhibition up to value,IC50,> 20 µM
C#CCOCc1ccc(-c2ccccc2)cc1,Cytochrome P450 2A13,"enzyme activity, inhibitor",,added: 10 µM coumarin,,IC50,> 80 µM
CC(C)CC(=O)OC[C@H]1O[C@@](C#N)(c2ccc3c(N)ncnn23)[C@H](O)[C@@H]1O,"Cytochrome P450 3A5 (CYP3A5, Homo sapiens, UniProt P20815)",metabolic stability,recombinant enzyme,1 µM,,half-life,20 ± 0.784 min
